Measured values of several laboratories.
Protocols differ between the studies behind these lines. ± marks the error that the study gave.
PIP4K2C: Phosphatidylinositol 5-phosphate 4-kinase type-2 gamma (PIP4K2C, Homo sapiens, UniProt Q8TBX8)
Sequence of UniProt Q8TBX8 (whole entry, looked up): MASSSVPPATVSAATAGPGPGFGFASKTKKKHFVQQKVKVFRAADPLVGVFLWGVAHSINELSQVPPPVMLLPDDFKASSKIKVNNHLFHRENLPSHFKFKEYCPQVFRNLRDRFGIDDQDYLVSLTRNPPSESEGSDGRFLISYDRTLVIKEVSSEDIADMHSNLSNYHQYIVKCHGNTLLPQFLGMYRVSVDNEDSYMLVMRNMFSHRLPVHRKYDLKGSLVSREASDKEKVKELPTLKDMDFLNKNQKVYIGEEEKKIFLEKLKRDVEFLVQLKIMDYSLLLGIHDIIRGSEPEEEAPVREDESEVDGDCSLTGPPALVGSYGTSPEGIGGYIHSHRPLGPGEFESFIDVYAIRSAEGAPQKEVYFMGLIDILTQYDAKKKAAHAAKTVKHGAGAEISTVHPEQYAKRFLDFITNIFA
PPARA ligand-binding domain: Peroxisome proliferator-activated receptor alpha, ligand-binding domain (PPARA, Homo sapiens, UniProt Q07869)
Sequence of UniProt Q07869 (whole entry, looked up): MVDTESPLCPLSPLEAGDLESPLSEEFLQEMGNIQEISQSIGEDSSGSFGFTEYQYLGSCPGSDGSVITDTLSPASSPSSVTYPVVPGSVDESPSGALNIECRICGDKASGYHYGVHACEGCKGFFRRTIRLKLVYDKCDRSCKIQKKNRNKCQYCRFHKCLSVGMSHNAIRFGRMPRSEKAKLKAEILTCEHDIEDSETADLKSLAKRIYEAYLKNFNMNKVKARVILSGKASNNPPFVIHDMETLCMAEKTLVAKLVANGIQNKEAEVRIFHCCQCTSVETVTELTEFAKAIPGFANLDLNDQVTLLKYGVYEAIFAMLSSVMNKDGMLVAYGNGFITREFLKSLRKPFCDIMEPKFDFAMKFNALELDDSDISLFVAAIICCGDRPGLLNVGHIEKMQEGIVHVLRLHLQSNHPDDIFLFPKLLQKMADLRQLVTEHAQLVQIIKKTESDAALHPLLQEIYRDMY
Chymotrypsinogen A: Chymotrypsinogen A (Bos taurus, UniProt P00766)
GBA2: Beta-glucosidase (GBA2, Homo sapiens, UniProt Q9HCG7)
Sequence of UniProt Q9HCG7 (whole entry, looked up): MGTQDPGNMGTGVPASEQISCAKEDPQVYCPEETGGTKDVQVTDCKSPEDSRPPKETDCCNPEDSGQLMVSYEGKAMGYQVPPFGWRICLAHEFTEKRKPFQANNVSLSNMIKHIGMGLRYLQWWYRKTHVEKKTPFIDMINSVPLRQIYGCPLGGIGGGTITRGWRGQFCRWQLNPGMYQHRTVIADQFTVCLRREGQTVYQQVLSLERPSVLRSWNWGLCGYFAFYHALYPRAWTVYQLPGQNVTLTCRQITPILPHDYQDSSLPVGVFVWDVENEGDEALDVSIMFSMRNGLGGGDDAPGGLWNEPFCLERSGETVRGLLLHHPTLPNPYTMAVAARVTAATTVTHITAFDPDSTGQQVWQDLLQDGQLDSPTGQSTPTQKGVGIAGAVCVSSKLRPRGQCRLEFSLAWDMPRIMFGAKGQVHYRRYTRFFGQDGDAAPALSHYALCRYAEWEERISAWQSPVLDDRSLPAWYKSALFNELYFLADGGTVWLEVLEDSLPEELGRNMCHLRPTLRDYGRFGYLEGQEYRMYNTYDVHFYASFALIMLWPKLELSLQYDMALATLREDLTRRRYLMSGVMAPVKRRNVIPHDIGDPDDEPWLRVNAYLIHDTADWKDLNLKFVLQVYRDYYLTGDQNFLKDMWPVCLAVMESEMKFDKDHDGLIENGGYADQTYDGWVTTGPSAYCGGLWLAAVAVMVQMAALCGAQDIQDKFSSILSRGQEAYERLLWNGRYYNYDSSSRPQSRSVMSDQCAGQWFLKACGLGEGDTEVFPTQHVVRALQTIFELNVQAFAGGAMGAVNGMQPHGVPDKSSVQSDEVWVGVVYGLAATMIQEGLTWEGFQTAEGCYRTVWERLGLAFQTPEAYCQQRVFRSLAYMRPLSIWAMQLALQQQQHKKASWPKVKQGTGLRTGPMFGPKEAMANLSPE
IAPP: Islet amyloid polypeptide (IAPP, Homo sapiens, UniProt P10997)
Sequence of UniProt P10997 (whole entry, looked up): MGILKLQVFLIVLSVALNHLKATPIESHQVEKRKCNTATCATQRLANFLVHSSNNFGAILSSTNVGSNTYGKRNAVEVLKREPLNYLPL
PIK3CG: Phosphatidylinositol 4,5-bisphosphate 3-kinase catalytic subunit gamma isoform (PIK3CG, Homo sapiens, UniProt P48736)
Sequence of UniProt P48736 (whole entry, looked up): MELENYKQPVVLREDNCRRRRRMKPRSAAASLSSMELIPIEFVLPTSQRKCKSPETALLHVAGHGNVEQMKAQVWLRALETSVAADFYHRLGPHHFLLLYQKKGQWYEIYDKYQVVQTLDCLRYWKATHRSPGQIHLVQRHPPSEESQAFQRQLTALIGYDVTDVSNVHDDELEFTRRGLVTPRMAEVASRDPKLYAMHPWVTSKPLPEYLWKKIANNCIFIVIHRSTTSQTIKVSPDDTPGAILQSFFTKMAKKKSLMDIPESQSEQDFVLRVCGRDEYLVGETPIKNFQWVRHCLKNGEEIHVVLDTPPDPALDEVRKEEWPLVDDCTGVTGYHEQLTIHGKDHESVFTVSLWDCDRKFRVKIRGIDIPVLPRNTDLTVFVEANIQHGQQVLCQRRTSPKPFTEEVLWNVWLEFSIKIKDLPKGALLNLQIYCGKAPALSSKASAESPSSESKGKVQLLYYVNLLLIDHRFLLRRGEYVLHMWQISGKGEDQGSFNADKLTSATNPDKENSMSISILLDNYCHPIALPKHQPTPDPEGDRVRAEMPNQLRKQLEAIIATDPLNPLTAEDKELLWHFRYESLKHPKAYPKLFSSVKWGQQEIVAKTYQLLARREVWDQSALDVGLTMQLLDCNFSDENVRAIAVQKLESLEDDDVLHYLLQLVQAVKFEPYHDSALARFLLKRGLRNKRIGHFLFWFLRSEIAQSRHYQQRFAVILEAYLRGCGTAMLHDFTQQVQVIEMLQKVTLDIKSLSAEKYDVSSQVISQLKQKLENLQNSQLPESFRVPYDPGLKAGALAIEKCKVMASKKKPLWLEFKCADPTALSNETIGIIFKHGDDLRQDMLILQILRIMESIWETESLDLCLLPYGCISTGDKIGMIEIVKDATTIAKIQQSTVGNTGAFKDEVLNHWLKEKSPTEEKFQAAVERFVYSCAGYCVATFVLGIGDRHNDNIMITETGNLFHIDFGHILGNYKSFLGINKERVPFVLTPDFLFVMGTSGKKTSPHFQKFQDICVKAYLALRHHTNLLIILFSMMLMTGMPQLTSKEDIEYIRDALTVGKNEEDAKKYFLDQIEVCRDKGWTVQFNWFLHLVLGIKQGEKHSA
Sensor histidine kinase AirS: Sensor histidine kinase AirS (Staphylococcus aureus, UniProt Q2FX96)
Sequence of UniProt O14757 (whole entry, looked up): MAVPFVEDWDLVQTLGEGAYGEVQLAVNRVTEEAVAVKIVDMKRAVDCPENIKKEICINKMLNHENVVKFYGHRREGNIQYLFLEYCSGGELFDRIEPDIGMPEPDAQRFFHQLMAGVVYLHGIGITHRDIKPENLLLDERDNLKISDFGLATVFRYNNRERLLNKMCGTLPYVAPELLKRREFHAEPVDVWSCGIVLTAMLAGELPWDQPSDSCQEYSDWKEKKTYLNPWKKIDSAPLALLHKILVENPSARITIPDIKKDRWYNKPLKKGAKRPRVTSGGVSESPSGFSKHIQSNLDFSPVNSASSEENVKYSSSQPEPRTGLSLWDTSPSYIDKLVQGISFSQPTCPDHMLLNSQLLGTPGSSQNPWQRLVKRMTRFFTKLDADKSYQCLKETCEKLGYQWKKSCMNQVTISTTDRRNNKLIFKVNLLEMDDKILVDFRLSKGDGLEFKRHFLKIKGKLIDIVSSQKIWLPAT
Sequence of UniProt P48147 (whole entry, looked up): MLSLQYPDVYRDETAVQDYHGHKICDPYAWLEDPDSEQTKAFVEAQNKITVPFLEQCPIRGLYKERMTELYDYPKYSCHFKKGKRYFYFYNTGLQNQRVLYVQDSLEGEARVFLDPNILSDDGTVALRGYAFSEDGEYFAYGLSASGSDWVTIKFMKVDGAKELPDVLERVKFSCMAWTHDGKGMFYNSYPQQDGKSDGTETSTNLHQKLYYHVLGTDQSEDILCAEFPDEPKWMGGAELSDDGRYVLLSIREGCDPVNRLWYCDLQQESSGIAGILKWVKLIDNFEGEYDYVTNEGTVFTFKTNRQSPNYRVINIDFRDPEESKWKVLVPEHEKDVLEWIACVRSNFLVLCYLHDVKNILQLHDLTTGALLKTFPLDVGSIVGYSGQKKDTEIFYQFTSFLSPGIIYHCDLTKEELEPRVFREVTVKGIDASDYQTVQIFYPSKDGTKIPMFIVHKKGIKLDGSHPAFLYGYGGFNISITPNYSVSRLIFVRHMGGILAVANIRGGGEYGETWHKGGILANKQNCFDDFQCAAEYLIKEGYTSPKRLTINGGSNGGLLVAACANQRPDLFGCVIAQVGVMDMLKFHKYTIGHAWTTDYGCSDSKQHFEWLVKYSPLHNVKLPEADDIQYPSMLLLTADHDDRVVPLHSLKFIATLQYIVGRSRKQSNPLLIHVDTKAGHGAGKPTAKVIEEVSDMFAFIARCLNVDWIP
Sequence of UniProt P15291 (whole entry, looked up): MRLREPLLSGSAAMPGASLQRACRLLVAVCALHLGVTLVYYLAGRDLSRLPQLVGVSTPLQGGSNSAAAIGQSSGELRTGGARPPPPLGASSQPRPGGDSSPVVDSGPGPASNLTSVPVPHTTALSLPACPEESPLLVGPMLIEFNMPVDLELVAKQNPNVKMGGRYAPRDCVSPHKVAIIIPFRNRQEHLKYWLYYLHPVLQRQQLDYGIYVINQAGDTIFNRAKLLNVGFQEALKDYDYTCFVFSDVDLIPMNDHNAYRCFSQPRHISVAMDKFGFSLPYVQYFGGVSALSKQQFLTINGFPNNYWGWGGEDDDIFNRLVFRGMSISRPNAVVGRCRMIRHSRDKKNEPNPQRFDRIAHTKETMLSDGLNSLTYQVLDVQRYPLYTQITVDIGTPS
Sequence of UniProt P30874 (whole entry, looked up): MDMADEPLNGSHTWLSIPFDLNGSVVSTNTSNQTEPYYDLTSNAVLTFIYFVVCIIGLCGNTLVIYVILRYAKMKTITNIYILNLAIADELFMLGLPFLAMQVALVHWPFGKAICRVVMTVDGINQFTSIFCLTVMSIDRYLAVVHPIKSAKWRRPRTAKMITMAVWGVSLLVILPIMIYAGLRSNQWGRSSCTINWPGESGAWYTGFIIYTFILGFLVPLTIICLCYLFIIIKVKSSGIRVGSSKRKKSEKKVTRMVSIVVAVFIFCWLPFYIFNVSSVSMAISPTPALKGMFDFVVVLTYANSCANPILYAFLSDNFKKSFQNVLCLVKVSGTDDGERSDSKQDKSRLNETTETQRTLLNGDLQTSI

| SMILES | target | test | system | setting | IC50 [µM] |
| --- | --- | --- | --- | --- | --- |
| Nc1ncc2c(n1)-c1c([nH]c3ccc(C#CC4CC4)cc13)CC2 | PIP4K2C | target engagement in cells, BRET | – | – | 0.06 |
| C[C@H](c1ccccc1)N1C(=O)C2=Nc3cccc(Cl)c3CN2C1=S | G protein-coupled receptor kinase 4 (GRK4, Homo sapiens, UniProt P32298) | enzyme activity, inhibitor | – | – | 0.254 |
| N#Cc1cnc(NC(=O)Nc2cc(Cl)ccc2OCCCN2C(=O)c3ccccc3C2=O)cn1 | Serine/threonine-protein kinase Chk1 (CHEK1, Homo sapiens, UniProt O14757) | enzyme activity, inhibitor | – | – | 0.013 |
| Cc1c(Cc2ccc(Cl)c(OC(C)C(=O)O)c2)c2ccc(C(=O)NC(C)c3cc(F)cc(C(C)(C)C)c3)cc2n1C (stereo not drawn) | PPARA ligand-binding domain | reporter gene, luciferase reporter | HEK293T, Gal4-PPARα LBD | – | > 100 |
| O=C(NCc1ccc(Cl)cc1)C(C(F)(F)F)C(F)(F)F | Chymotrypsinogen A | enzyme activity, inhibitor, fluorescence | – | – | 18 |
| C[C@@H](O)[C@@H]1NC(=O)[C@H](CCCCN)NC(=O)[C@@H](Cc2c[nH]c3ccccc23)NC(=O)[C@H](Cc2ccc(NC(N)=O)cc2)NC(=O)[C@H](NC(=O)[C@H](Cc2ccccc2)NC(N)=O)CSSC[C@@H](C(=O)N[C@@H](Cc2ccc3ccccc3c2)C(N)=O)NC1=O | Somatostatin receptor type 2 (SSTR2, Homo sapiens, UniProt P30874) | ligand displacement, radioligand | – | – | 0.089 |
| Cn1cc(-c2ccc3[nH]c4c(c3c2)-c2nc(N)ncc2CCC4)cn1 | PIP4K2C | target engagement in cells, BRET | – | – | 0.26 |
| Cc1nn(-c2cccc(N)c2)c(=O)c2cnc(Nc3ccc(N4CCNCC4)cc3)nc12 | Serine/threonine-protein kinase Nek1 (NEK1, Homo sapiens, UniProt Q96PY6) | enzyme activity, inhibitor | – | – | > 10 |
| CC(C)=CCOCCCCCN1C[C@H](O)[C@@H](O)[C@H](O)[C@@H]1CO | GBA2 | inhibitor, 4MU-β-D-glucopyranoside | HEK293T homogenates overexpressing GBA2 | – | 0.0058 |
| O=C(Nc1ccc(Cl)cc1)Nc1ccc(C2CC(c3ccc(Cl)cc3)=NN2)cc1 (stereo not drawn) | Advanced glycosylation end product-specific receptor (AGER, Homo sapiens, UniProt Q15109) | – | – | – | 72 |
| CCCCCCCOCCCCCN1C[C@H](O)[C@@H](O)[C@H](O)[C@H]1CO | GBA2 | inhibitor, 4MU-β-D-glucopyranoside | HEK293T homogenates overexpressing GBA2 | – | 0.015 |
| O=C(Cc1nn(CCc2ccccc2)c2nccc(Cl)c12)N1CCCC1 | Prolyl endopeptidase (PREP, Homo sapiens, UniProt P48147) | enzyme activity, inhibitor, fluorescence | – | – | 2.3 |
| CC(=O)N[C@@H](CCCCN)C(=O)NCCOCCOC(=O)c1ccc(/N=N/c2ccc(N(C)C)cc2)cc1 | IAPP | ThT displacement, ThT fluorescence | – | pH 7.4, preformed target-ThT complex, with: 5 µM ThT | 2.6 |
| OC[C@H]1[C@@H](O)[C@H](O)[C@@H](O)CN1CCCCCOCc1ccc(-c2ccccc2)cc1F | GBA2 | inhibitor, 4MU-β-D-glucopyranoside | HEK293T homogenates overexpressing GBA2 | – | 0.0004 |
| Cc1c(Cc2ccc(Cl)c(OC(C)C(=O)O)c2)c2ccc(C(=O)NCc3ccc(C(C)(C)C)cc3)cc2n1CC(C)C (stereo not drawn) | PPARA ligand-binding domain | reporter gene, luciferase reporter | HEK293T, Gal4-PPARα LBD | – | 2.64 |
| Cc1ccc(S(=O)(=O)N2CC(NC(=O)c3ccc(F)cc3)C2=O)cc1 (stereo not drawn) | Chymotrypsinogen A | enzyme activity, inhibitor, fluorescence | – | – | 189 |
| COc1ccccc1/C=C1\C(=O)Nc2ccc(Nc3nc(C)nc4ccccc34)cc21 | PIK3CG | enzyme activity, inhibitor, ADP detection | – | – | 0.051 |
| Cc1c(Cc2ccc(OC(C)C(=O)O)cc2Cl)c2ccc(C(=O)NC(C)c3ccc(C(C)(C)C)cc3)cc2n1C (stereo not drawn) | PPARA ligand-binding domain | reporter gene, luciferase reporter | HEK293T, Gal4-PPARα LBD | – | 34 |
| O=C(O)/C=C\C(=O)c1ccc(O)cc1 | Beta-1,4-galactosyltransferase 1 (B4GALT1, Homo sapiens, UniProt P15291) | enzyme activity, inhibitor | – | – | 13.1 |
| CN(C1=C(c2ccc(F)cc2)C(=O)NC1=O)c1ccc(F)cc1 | Sensor histidine kinase AirS | autophosphorylation, inhibitor, BODIPY-FL-ATPγS in-gel fluorescence | – | lower bound of confidence interval | > 1250 |
| Cc1cc(NC(=O)[C@H](O)c2cc(F)cc(F)c2)ccc1-c1cnc(N)c(C(=O)NC(C)C)c1 | Interferon-induced, double-stranded RNA-activated protein kinase (EIF2AK2, Homo sapiens, UniProt P19525) | inhibitor, FRET kinase | – | with: ATP 6 µM | > 10 |
| CNC(=O)C[C@H](Cc1ccc(C#N)cc1)NC(=O)c1cc(-c2ccc(CN[C@H](C)c3ccc(C)cc3)o2)ccc1Cl | ATPase family AAA domain-containing protein 2, bromodomain (ATAD2, Homo sapiens, UniProt Q6PL18) | binding, inhibitor, AlphaScreen competition | – | His-tagged protein, with: peptide, histone H4, tetra-acetylated | > 20 |
| Cc1ccc(S(=O)(=O)N2CC(NC(=O)Cc3ccccc3)C2=O)cc1 (stereo not drawn) | Chymotrypsinogen A | enzyme activity, inhibitor, fluorescence | – | – | 0.54 |
| OC[C@@H]1[C@@H](O)[C@H](O)[C@@H](O)CN1CCCCCOCC1CCOCC1 | GBA2 | inhibitor, 4MU-β-D-glucopyranoside | HEK293T homogenates overexpressing GBA2 | – | 0.035 |

| SMILES | target | test | system | setting | IC50 [µM] |
| --- | --- | --- | --- | --- | --- |
| COc1ccccc1CNC(=O)C(C(F)(F)F)C(F)(F)F | Chymotrypsinogen A | enzyme activity, inhibitor, fluorescence | – | – | 11 |
| Cc1ccc(S(=O)(=O)N/N=C/c2ccsc2B(O)O)cc1 | Urokinase-type plasminogen activator (PLAU, Homo sapiens, UniProt P00749) | enzyme activity, inhibitor | – | – | > 100 |
| CCOc1ccc(NC(=O)C(C(F)(F)F)C(F)(F)F)cc1 | Chymotrypsinogen A | enzyme activity, inhibitor, fluorescence | – | – | 27 |
| Cc1cc(C)nc(SCC(=O)Nc2ncc(Cc3cccc(OCc4cn(-c5ccc(Cl)cc5)nn4)c3)s2)n1 | NAD-dependent protein deacetylase sirtuin-2 (SIRT2, Homo sapiens, UniProt Q8IXJ6) | inhibitor | – | – | 0.22 ± 0.04 |
| CCN(CC)CC(=O)Nc1cccc(-n2cc(-c3ccc4ccc(-c5cn(-c6cccc(NC(=O)CN(CC)CC)c6)nn5)cc4c3)nn2)c1 | Tyrosine-protein kinase CSK (CSK, Homo sapiens, UniProt P41240) | enzyme activity, inhibitor | – | – | > 10 |
| Cc1ccc(S(=O)(=O)N2CC(NC(=O)c3ccccc3)C2=O)cc1 (stereo not drawn) | Chymotrypsinogen A | enzyme activity, inhibitor, fluorescence | – | – | 217 |
| CC(=O)N[C@@H](CCCCN)C(=O)Nc1ccc(/N=N/c2ccc(N(C)C)cc2)cc1 | IAPP | ThT displacement, ThT fluorescence | – | pH 7.4, preformed target-ThT complex, with: 5 µM ThT | 2.5 |
| Cc1cccc([C@H](C)NC(=O)c2ccc3c(Cc4cccc(OC(C)(C)C(=O)O)c4)c(C)n(C)c3c2)c1 | PPARA ligand-binding domain | reporter gene, luciferase reporter | HEK293T, Gal4-PPARα LBD | – | 158 |
| Fc1ccc(Nc2nc(NC3CCCCC3)c3cc(C(F)(F)F)ccc3n2)cc1F | Beta-2 adrenergic receptor (ADRB2, Homo sapiens, UniProt P07550, Q170L) | β-arrestin2 recruitment, antagonist, BRET | HEK293 | mutant Q170L, with: isoprenaline 1 µM | 0.316 |
| COc1ccc(CN2C3(NC(c4ccc(OC)cc4)C24C(=O)Nc2ccccc24)C(=O)Nc2ccccc23)cc1 (stereo not drawn) | PIK3CG | enzyme activity, inhibitor, ADP detection | – | – | 0.0469 |
| OC[C@@H]1[C@@H](O)[C@H](O)[C@@H](O)CN1CCCCCOCC(COCCCCCN1C[C@H](O)[C@@H](O)[C@H](O)[C@H]1CO)C12CC3CC(CC(C3)C1)C2 | GBA2 | inhibitor, 4MU-β-D-glucopyranoside | HEK293T homogenates overexpressing GBA2 | – | 0.008 |
| O=C1/C(=N\c2ccc(Cl)cc2Br)c2ccccc2N1Cc1cccc(Cl)c1 (mixture of isomers) | PIK3CG | enzyme activity, inhibitor, ADP detection | – | – | 0.00216 |
| CCCCCN1C[C@@H](O)[C@H](O)[C@H](O)[C@@H]1CO | GBA2 | inhibitor, 4MU-β-D-glucopyranoside | HEK293T homogenates overexpressing GBA2 | – | 0.25 |
| Cc1c(Cc2ccc(OC(C)(C)C(=O)O)cc2)c2ccc(C(=O)N[C@@H](C)c3cccc(C(F)(F)F)c3)cc2n1C | PPARA ligand-binding domain | reporter gene, luciferase reporter | HEK293T, Gal4-PPARα LBD | – | 4.11 |
| CC(C)(C)OC(=O)c1ccccc1NC(=O)C(C(F)(F)F)C(F)(F)F | Chymotrypsinogen A | enzyme activity, inhibitor, fluorescence | – | – | 32 |
| Cc1ccc2nc(C)n(/N=C/c3ccc(C(=O)O)cc3)c(=O)c2c1 | Pancreatic alpha-amylase (Homo sapiens, UniProt P04746) | enzyme activity, inhibitor | – | – | 626 ± 17.6 |
| Cc1c(Cc2cccc(OC(C)(C)C(=O)O)c2)c2ccc(C(=O)N[C@@H](C)c3cccc(C(C)(C)C)c3)cc2n1C | PPARA ligand-binding domain | reporter gene, luciferase reporter | HEK293T, Gal4-PPARα LBD | – | 485 |
| Clc1ccc(NN=C(c2ccccc2)c2ccccn2)nc1 | Lysine-specific demethylase 4B (KDM4B, Homo sapiens, UniProt O94953) | enzyme activity, inhibitor, ELISA | – | – | 0.435 |
| CC(C)=CCC/C(C)=C/CC/C(C)=C/CN1C[C@H](O)[C@@H](O)[C@H](O)[C@H]1CO | GBA2 | inhibitor, 4MU-β-D-glucopyranoside | HEK293T homogenates overexpressing GBA2 | – | 0.025 |
| O=C(COc1ccccc1NC(=O)C(C(F)(F)F)C(F)(F)F)NCC1CC1 | Chymotrypsinogen A | enzyme activity, inhibitor, fluorescence | – | – | 66 |
| CN(C1=C(c2ccccc2)C(=O)NC1=O)c1ccccc1 | Sensor histidine kinase AirS | autophosphorylation, inhibitor, BODIPY-FL-ATPγS in-gel fluorescence | – | lower bound of confidence interval | > 477 |
| OC[C@@H]1[C@@H](O)[C@H](O)[C@@H](O)CN1CCCCCOCCc1ccsc1 | GBA2 | inhibitor, 4MU-β-D-glucopyranoside | HEK293T homogenates overexpressing GBA2 | – | 0.002 |
| Cc1cccc(C)c1CNc1cc(C(=O)N2CCC2)cn2c(C)c(C)nc12 | Potassium-transporting ATPase alpha chain 1 (Sus scrofa, UniProt P19156) | enzyme activity, inhibitor | porcine gastric vesicles | pH 6.5 | 0.0167 |
| C/C1=C\CC/C(C)=C/CC(C)(C)/C=C/C1 | Transient receptor potential cation channel subfamily V member 1 (TRPV1, Homo sapiens, UniProt Q8NER1, G492W) | ion current, inhibitor, patch clamp | – | – | 35.6 |

Some of these lines once more:
| SMILES | target | test | system | setting | IC50 [µM] |
| --- | --- | --- | --- | --- | --- |
| Cc1c(Cc2ccc(Cl)c(OC(C)C(=O)O)c2)c2ccc(C(=O)NCc3ccc(C(C)(C)C)cc3)cc2n1CC(C)C (stereo not drawn) | PPARA ligand-binding domain | reporter gene, luciferase reporter | HEK293T, Gal4-PPARα LBD | – | 2.64 |
| Cc1ccc(S(=O)(=O)N2CC(NC(=O)c3ccc(F)cc3)C2=O)cc1 (stereo not drawn) | Chymotrypsinogen A | enzyme activity, inhibitor, fluorescence | – | – | 189 |
| COc1ccccc1/C=C1\C(=O)Nc2ccc(Nc3nc(C)nc4ccccc34)cc21 | PIK3CG | enzyme activity, inhibitor, ADP detection | – | – | 0.051 |
| Cc1c(Cc2ccc(OC(C)C(=O)O)cc2Cl)c2ccc(C(=O)NC(C)c3ccc(C(C)(C)C)cc3)cc2n1C (stereo not drawn) | PPARA ligand-binding domain | reporter gene, luciferase reporter | HEK293T, Gal4-PPARα LBD | – | 34 |
| O=C(O)/C=C\C(=O)c1ccc(O)cc1 | Beta-1,4-galactosyltransferase 1 (B4GALT1, Homo sapiens, UniProt P15291) | enzyme activity, inhibitor | – | – | 13.1 |
| CN(C1=C(c2ccc(F)cc2)C(=O)NC1=O)c1ccc(F)cc1 | Sensor histidine kinase AirS | autophosphorylation, inhibitor, BODIPY-FL-ATPγS in-gel fluorescence | – | lower bound of confidence interval | > 1250 |
